Measured values of several laboratories.
Each line is one published result; not all experiments were run side by side.

Compound	assay	system	setting	half-life
CC1(C)O[C@H](COP2(=O)OCc3ccccc3O2)[C@H](C(=O)NO)O1 (stereo partly shown)	chemical stability	PBS	1 mg/mL, pH 7.2	0.63 h
COc1cc(NC(=O)C(=O)c2c(C)n(Cc3ccc(Cl)cc3)c3ccc(C)cc23)ccn1		cynomolgus monkey, female, plasma	oral, 10 mg/kg	15.8 h
CC[C@H](C)[C@@H]1NC(=O)[C@H](Cc2ccc(O)cc2)NC(=O)[C@@H](N)CSCSC[C@@H](C(=O)N2CCC[C@H]2C(=O)N[C@@H](CC(C)C)C(=O)NCC(N)=O)NC(=O)[C@H](CC(N)=O)NC(=O)[C@H](CCC(N)=O)NC1=O		phosphate buffer	0.1 mg/mL, pH 7.0, 55 °C	192 h
COC(=O)C(=O)/C(=C\c1ccc(-c2ccccc2[N+](=O)[O-])o1)C(=O)c1ccccc1	chemical stability	glutathione solution	500 µM	0.827 h
CC(C)(CCCC/C=C/CCCCCC(C)(C)C(=O)O)C(=O)O		ICR mouse, plasma	intravenous, 10 mg/kg	4.55 h
CC(COC(=O)c1ccccc1)OC(=O)C(N)Cc1ccccc1 (mixture of isomers)		rat intestinal lumenal perfusate	37 °C	> 2 h
CC(C)C[C@H](NC(=O)[C@H](CCCCN)NC(=O)[C@H](CCC(=O)O)NC(=O)[C@H](C)NC(=O)[C@@H](NC(=O)[C@H](CCCCN)NC(=O)[C@H](CC(=O)O)NC(=O)[C@H](Cc1ccc(O)cc1)NC(=O)[C@H](Cc1ccccc1)NC(=O)[C@H](C)NC(=O)[C@H](CCCCN)NC(=O)[C@H](CC(C)C)NC(=O)[C@H](Cc1c[nH]c2ccccc12)NC(=O)[C@@H](N)CC(=O)O)C(C)C)C(=O)N[C@@H](CCCCN)C(=O)N[C@@H](CCC(=O)O)C(=O)N[C@@H](C)C(=O)N[C@@H](Cc1ccccc1)C(=O)N1CCC[C@H]1C(=O)N[C@@H](CC(=O)O)C(=O)N[C@@H](Cc1c[nH]c2ccccc12)C(=O)N[C@@H](C)C(=O)N[C@@H](CCCCN)C(=O)N[C@@H](C)C(=O)N[C@@H](C)C(=O)N[C@@H](Cc1ccc(O)cc1)C(=O)N[C@@H](CC(=O)O)C(=O)N[C@@H](CCCCN)C(=O)N[C@@H](C)C(=O)N[C@@H](C)C(=O)N[C@@H](CCC(=O)O)C(=O)N[C@@H](CCCCN)C(=O)N[C@@H](C)C(=O)N[C@@H](CCCCN)C(=O)N[C@@H](CCC(=O)O)C(=O)N[C@@H](C)C(=O)N[C@@H](C)C(=O)O		cynomolgus monkey female, plasma	intravenous infusion, 25 mg/kg, day 1, 30 min infusion	4 h
CCCCCCCC/C=C\CCCCCCCCOP(O)(O)=S.N		mouse, male, nonirradiated	sc, dose not given	1.41 h
CC[C@H](C)[C@@H]1NC(=O)[C@H](CC(N)=O)NC(=O)[C@@H]2CCCN2C(=O)[C@@H](NC(=O)[C@H](CC(N)=O)NC(=O)[C@@H](N)CCC(N)=O)COC(=O)[C@H](CCSC)NC(=O)[C@H](Cc2c[nH]c3ccccc23)NC(=O)[C@H](CCC(N)=O)NC(=O)CNC(=O)[C@H](Cc2ccccc2)NC1=O	chemical stability	PBS	280 µM, pH 7.2	~4 h
N=C(N)NCCC[C@H](NC(=O)[C@H](CCCCNC(=O)c1cncc(OS(=O)(=O)F)c1)NS(=O)(=O)c1cccc(F)c1)C(=O)NC1CCC1	chemical stability, HPLC	glutathione solution	50 µM, pH 8	> 17 h

Some of these lines once more:
Compound	assay	system	setting	half-life
CC[C@H](C)[C@@H]1NC(=O)[C@H](CC(N)=O)NC(=O)[C@@H]2CCCN2C(=O)[C@@H](NC(=O)[C@H](CC(N)=O)NC(=O)[C@@H](N)CCC(N)=O)COC(=O)[C@H](CCSC)NC(=O)[C@H](Cc2c[nH]c3ccccc23)NC(=O)[C@H](CCC(N)=O)NC(=O)CNC(=O)[C@H](Cc2ccccc2)NC1=O	chemical stability	PBS	280 µM, pH 7.2	~4 h
N=C(N)NCCC[C@H](NC(=O)[C@H](CCCCNC(=O)c1cncc(OS(=O)(=O)F)c1)NS(=O)(=O)c1cccc(F)c1)C(=O)NC1CCC1	chemical stability, HPLC	glutathione solution	50 µM, pH 8	> 17 h
